Measurements gathered from unrelated publications.
A part holds a random share of what one study measured. Changes are numbered by the printed parent chain.

Set 1
Target: Centromere-binding protein 1, full length, N-terminal tag (CBF1, Saccharomyces cerevisiae, UniProt P17106, residues 1-351)
Sequence of UniProt P17106 (whole entry, looked up): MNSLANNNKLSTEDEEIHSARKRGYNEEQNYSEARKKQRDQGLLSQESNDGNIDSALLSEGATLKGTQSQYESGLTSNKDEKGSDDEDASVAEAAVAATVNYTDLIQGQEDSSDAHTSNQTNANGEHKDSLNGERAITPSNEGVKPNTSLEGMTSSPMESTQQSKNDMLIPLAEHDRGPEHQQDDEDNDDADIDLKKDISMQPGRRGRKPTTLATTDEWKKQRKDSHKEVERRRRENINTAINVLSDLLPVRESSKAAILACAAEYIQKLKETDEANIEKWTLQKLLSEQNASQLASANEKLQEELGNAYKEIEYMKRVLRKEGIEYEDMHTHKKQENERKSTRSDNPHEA
Technique: protein-binding microarray
Form: double-stranded DNA, one strand shown
Medium: in vitro
Concentration: 0.8 µM
Notes: whole 60-bp probe, no competitor
Direction: higher = stronger binding
All sequences stand within: … GTCTTGATTCGCTTGACGCTGCTG
`TGTACGAAGCTATATCACAATGCTATAGTAGTTAGG` has a fluorescence intensity of 538 a.u.
For `CTATCAAACCTCGTTTATGTCACGTAGAAAGAATTC`, the fluorescence intensity was 1060 a.u.
`GAACAAGAATTTCATCAGGTCTGGTACTTCTAGTAG` has a fluorescence intensity of 520 a.u.
`CTACAGTATTTTTTTCACGTGCTTTTTTTTCAATTC` has a fluorescence intensity of 5910 a.u.
`CTAGGCGGGATCTGGCCCGTGGAAATCGTATGGTTC` has a fluorescence intensity of 490 a.u.
The fluorescence intensity of `CTATCACGAAATGATGACACGATAGCATGTGCTTTC` is reported as 695 a.u.
The fluorescence intensity of `CTATCCTTTCTCCATCACATGAGTACGAGGAGGTTC` is reported as 1180 a.u.
With `CTATAACAACACTTATTCGTGGCAAGAACGAAATTC` the fluorescence intensity was 529 a.u.
For `GAATCTGAGTTTTCGCACGTTGCACGAGTCGCATAG`, the fluorescence intensity was 782 a.u.
The fluorescence intensity of `GAACAGACCCTTCAGCACGTGACAGACAGCAAATAG` is reported as 13300 a.u.
The fluorescence intensity of `GAAATACGACTTGCGCACATGTGAATCATTAACTAG` is reported as 855 a.u.
For `GAACTATTTGCTTCTCACGTTCTATAATATAGTTAG`, the fluorescence intensity was 878 a.u.
The fluorescence intensity of `CTAACATAACTTGAAAAGCTGATGGGTGTCAAGTTC` is reported as 514 a.u.
With `GAAAATATCTTAATTCACCTGTTTACTATCATGTAG` the fluorescence intensity was 526 a.u.
With `CTACGGTAATATAGTCAGATGAGTCACTACGAGTTC` the fluorescence intensity was 572 a.u.
`GAAAGTGAGGCGCATCACGTGAAAATACGTCAATAG` has a fluorescence intensity of 7370 a.u.

Set 2
Target: CCND3, cyclin fold, Cln2 fusion (human)
Technique: yeast growth competition, sequencing
Medium: yeast
Notes: weak parent motif
Relative to: not given
Direction: higher = stronger binding
Parent: CDC6 docking peptide (human); TLKGRRLVFDNQL; partner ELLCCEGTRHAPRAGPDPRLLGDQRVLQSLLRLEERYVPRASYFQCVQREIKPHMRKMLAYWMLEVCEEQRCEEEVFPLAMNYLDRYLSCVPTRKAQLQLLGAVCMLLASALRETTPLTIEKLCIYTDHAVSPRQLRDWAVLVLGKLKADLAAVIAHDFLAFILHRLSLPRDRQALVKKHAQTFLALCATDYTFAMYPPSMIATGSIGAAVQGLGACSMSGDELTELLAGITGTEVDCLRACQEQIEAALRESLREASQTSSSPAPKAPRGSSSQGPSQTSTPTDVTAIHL
`R5V` — result for “normalised enrichment score”: 0.177.
`K3G` — result for “normalised enrichment score”: 0.0909.
`N11P`: “normalised enrichment score” 0.134.
Under “normalised enrichment score”, `R5C` is recorded as 0.0556.
`Q12E`: “normalised enrichment score” 0.0502.
`G4T`: “normalised enrichment score” -0.000183.
`R5D`: “normalised enrichment score” 0.00583.
For `F9H`, “normalised enrichment score” read 0.0888.
`R5N` — result for “normalised enrichment score”: 0.0167.

Set 3
Target: ABI1, truncated, D143A, DHFR fusion (Arabidopsis thaliana)
Technique: DHFR PCA, deep sequencing
Medium: yeast
Notes: methotrexate growth selection, single substitutions
With: (+)-ABA 0.39 µM
Relative to: wild-type fitted maximum
Direction: higher = stronger binding
Parent: PYL1, truncated, DHFR fusion (Arabidopsis thaliana); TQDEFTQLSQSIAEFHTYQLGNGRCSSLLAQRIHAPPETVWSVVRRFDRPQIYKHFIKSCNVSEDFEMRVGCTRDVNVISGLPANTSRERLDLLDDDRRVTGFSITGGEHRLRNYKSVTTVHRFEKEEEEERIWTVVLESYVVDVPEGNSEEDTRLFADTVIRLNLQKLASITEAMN
Under “relative binding score”, `T6V` is recorded as 51%.
`A170V` — result for “relative binding score”: -5.98%.
`C25R`: “relative binding score” -7.09%.
`S9G` — result for “relative binding score”: 38.1%.
Under “relative binding score”, `Q167A` is recorded as 52.6%.
`K168F` — result for “relative binding score”: -5.75%.
`V70R`: “relative binding score” -0.51%.
`R163T`: “relative binding score” 44.8%.
`F47V` — result for “relative binding score”: -4.46%.
`F56E`: “relative binding score” -5.33%.
Under “relative binding score”, `A84K` is recorded as 2.18%.
`L112W`: “relative binding score” 15.2%.
Under “relative binding score”, `V145G` is recorded as -10.5%.
`R32N` — result for “relative binding score”: -0.758%.

Further values, each from its own experiment
The fold induction of `PhoQ, residues 284 288 289 292 302 303 ASVMEA` is reported as 20.9 (PhoP, residues 12 14 15 18 19 LHHVQ (Escherichia coli, UniProt P23836); Sort-seq, item: YFP reporter; E. coli; PhoQ-PhoP variant library, with: 10 µM Mg2+; relative to: high Mg2+ state, higher = stronger signaling).
